Experimental data gathered from unrelated publications.
Each line is one published result; not all experiments were run side by side.
Target: Cytochrome P450 1A2 (CYP1A2, Homo sapiens, UniProt P05177)
UniProt P05177, sequence (whole entry, looked up): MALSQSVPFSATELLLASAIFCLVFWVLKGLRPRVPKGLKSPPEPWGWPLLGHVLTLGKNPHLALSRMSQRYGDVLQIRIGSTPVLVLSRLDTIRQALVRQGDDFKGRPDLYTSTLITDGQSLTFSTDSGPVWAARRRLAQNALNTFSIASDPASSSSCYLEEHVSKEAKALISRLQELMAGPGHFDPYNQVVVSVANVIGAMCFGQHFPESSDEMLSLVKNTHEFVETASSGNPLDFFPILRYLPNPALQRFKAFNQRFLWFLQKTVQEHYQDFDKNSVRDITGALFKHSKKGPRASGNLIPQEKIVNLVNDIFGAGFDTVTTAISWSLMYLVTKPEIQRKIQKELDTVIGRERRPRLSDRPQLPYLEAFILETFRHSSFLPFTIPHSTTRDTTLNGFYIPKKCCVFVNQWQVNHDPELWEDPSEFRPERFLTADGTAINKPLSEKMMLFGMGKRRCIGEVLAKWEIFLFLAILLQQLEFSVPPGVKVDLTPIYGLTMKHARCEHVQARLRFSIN
Effect on: enzyme activity
Mode: inhibitor

`C=C(C)C(=O)Nc1ccc(-c2c(-c3ccc(Oc4nccc(C)n4)cc3)c3c(N)ncnc3n2C)cc1` has an IC50 of > 30 µM.
`Cc1c(NC(=O)c2ccc3c(c2)CC[C@@H]2C[C@@](O)(C(F)(F)F)CC[C@@]32Cc2ccccc2)ccc[n+]1[O-]` gave an IC50 of > 100 µM.
For `NC(=O)c1c(F)ccc(OCc2nc3cc(Cl)cnc3s2)c1F`, the IC50 was > 33.7 µM (fluorescence).
`C[C@](C(=O)NC1CCC(F)(F)CC1)(c1cncnc1)N(C(=O)[C@H](F)Cl)c1ccc(OC(F)(F)F)cc1` has an IC50 of > 50 µM (10 (unit not given)).
`COc1c(C(=O)/C=C/c2ccc(F)cc2)c(O)c(OC)c2occc12` gave an IC50 of > 10 µM (15 min, pH 7.4).
The IC50 of `O=C1c2oc3cc(O)c(O)cc3c2C(=O)c2oc3cc(O)c(O)cc3c21` is reported as 3.2 µM (human, liver microsomes; 1 h, pH 7.4).
The IC50 of `COc1ccc2c(c1OCc1ccccc1)C[C@@H](C(=O)O)N(c1nc3ccc(C#N)cc3o1)C2` is reported as > 50 µM (human, liver microsomes; 15 min, pH 7.4).
For `O=C(NC1CCC(F)(F)CC1)C(c1cncnc1)N(C(=O)C(F)Cl)c1ccc(-c2cncs2)cc1` (centres unmarked), the IC50 was 24.3 µM (10 (unit not given)).
`COC(=O)c1ccc2c(c1)NC(=O)/C2=C(\Nc1ccc2c(c1)CCN2C(=O)CN1CCOCC1)c1ccccc1` has an IC50 of > 80 µM (human, liver microsomes; 10 min).
The IC50 of `Cc1cc(/C=C/C#N)cc(C)c1Oc1nc(NC2CCN(Cc3ccc(S(C)(=O)=O)cc3)CC2)nc2ncccc12` is reported as 56.6 µM (human, liver microsomes; 10 min).
The IC50 of `C[C@@H](c1ccn(Cc2ccc(OC(F)(F)F)cc2)n1)[C@](O)(Cn1cnnn1)c1ccc(F)cc1F` is reported as > 100 µM (human, liver microsomes).
`CC1CCC2(OC1)OC1CC3C4CC=C5CC(OC6OC(CO)C(OC7OC(CO)C(O)C7O)C(O)C6OC6OC(C)C(O)C(O)C6O)CCC5(C)C4CCC3(C)C1(O)C2C` (centres unmarked) has an IC50 of 6.44 µM (human, liver microsomes; 1 h, pH 7.4).
`C[C@@H](c1ccn(Cc2ccc(Cl)cc2Cl)n1)[C@](O)(Cn1cnnn1)c1ccc(F)cc1F` gave an IC50 of > 100 µM (human, liver microsomes).
`O=c1nc(NO)ccn1[C@@H]1O[C@H](CO)[C@@H](O)[C@H]1O` has an IC50 of 74 µM (human, liver microsomes; 30 min, pH 7.4).
With `O=C(O)c1ccc(/C=C2\SC(=S)N(Cc3cccc(C(F)(F)F)c3)C2=O)cc1` the IC50 was 18.9 µM (human, liver microsomes).
`CCC(=O)N(C)c1ccc(Cl)c(Cl)c1` gave an IC50 of > 25 µM (5 min).
`C=CC(=O)Nc1cc(Nc2nccc(-c3cn(C)c4ccccc34)n2)c(OCC(F)(F)F)nc1N(C)CCN(C)C` has an IC50 of > 100 µM (liver microsomes).

Repeated from above:
The IC50 of `C[C@@H](c1ccn(Cc2ccc(OC(F)(F)F)cc2)n1)[C@](O)(Cn1cnnn1)c1ccc(F)cc1F` is reported as > 100 µM (human, liver microsomes).
`C[C@](C(=O)NC1CCC(F)(F)CC1)(c1cncnc1)N(C(=O)[C@H](F)Cl)c1ccc(OC(F)(F)F)cc1` has an IC50 of > 50 µM (10 (unit not given)).
